Measured values gathered from unrelated publications.
Each numbered part is a random draw from the data of one study; scales do not carry over between parts. Changes are numbered by the printed parent chain.

Series 1 — effect on: peptide-MHC binding; molecule type: peptide; tested at: concentration not given; measurement: binding
Target: HLA class I histocompatibility antigen, A alpha chain, allele A*80:01 (Homo sapiens, UniProt P04439)
EWAENCYNL: inactive
ETWVETWAF: inactive
NVMAADPPK: inactive
PQVLGGLSF: inactive
GMWCVLASR: inactive

Series 2 — target: FOSL1, bZIP domain (human); technique: DHFR protein complementation; matrix: yeast; relative to: wild-type JUN-FOS pair; direction: higher = stronger binding; measurement: binding fitness
Setting: single substitutions, most at no-binding floor
Starting sequence: JUN, bZIP domain (human); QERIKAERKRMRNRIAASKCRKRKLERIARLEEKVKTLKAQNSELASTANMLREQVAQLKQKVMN; partner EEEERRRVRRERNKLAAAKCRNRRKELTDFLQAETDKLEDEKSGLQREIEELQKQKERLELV
E33K: -0.727 natural log
T48E: -0.567 natural log
I28T: -0.637 natural log
A46G: -0.887 natural log
S47G: -0.447 natural log
R53W: -1.35 natural log
A46R: -0.217 natural log
Q55F: -1.11 natural log

Series 3 — technique: DHFR PCA, deep sequencing; matrix: yeast; added: (+)-ABA 200 µM; relative to: wild-type fitted maximum; direction: higher = stronger binding; measurement: relative binding score
Target: ABI1, truncated, D143A, DHFR fusion (Arabidopsis thaliana)
Setting: methotrexate growth selection, single substitutions
Starting sequence: PYL1, truncated, DHFR fusion (Arabidopsis thaliana); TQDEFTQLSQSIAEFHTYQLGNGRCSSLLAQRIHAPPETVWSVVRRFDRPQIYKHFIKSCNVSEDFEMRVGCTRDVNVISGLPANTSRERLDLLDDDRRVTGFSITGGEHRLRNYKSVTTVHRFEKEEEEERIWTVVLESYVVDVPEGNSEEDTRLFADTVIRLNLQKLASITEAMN
D3W: 96.4%
Y141C: 18.1%
R99D: 23.9%
P37C: 85.1%
F103Q: -0.691%
T39F: 90.8%
N85D: 98.1%
G21I: 97.1%

Series 4 — target: CCNE2, cyclin fold, Cln2 fusion (human); technique: yeast growth competition, sequencing; matrix: yeast; setting: strong parent motif; relative to: not given; direction: higher = stronger binding; measurement: normalised enrichment score; starting sequence: viral docking peptide; KGVKRKLFAEDSS
F8W: 4.68
A9Q: 7.12
D11Q: 5.77
G2M: 5.51
A9V: 7.25
G2P: 6.93
S12N: 6.96
K4T: 3
E10V: 5.53
A9M: 7.04
K4N: 3.64
F8Y: 1.83
A9L: 6.3
G2T: 6.57
A9T: 6.74
K6A: 4.26

A few entries again (series 3):
D3W: 96.4%
Y141C: 18.1%
R99D: 23.9%
P37C: 85.1%
